Results pooled from the literature.
Lines come from different studies, so protocols differ. Several values in a cell are separate wells, animals, samples, runs or records. ± marks the error that the study gave. Converted amounts (≈) assume the structure as drawn.

With `O=C(C[Se]C(=O)c1cc2ccccc2o1)Nc1cccc(C(F)(F)F)c1` the GI50 was 1700 nM (NCI60 CNS cancer panel; five-dose screen).
For `CCCC[C@@H]1NC(=O)[C@@H](CC(C)C)NC(=O)[C@H](CCCCNC(=O)CN2CCN(CC(=O)O)CCN(CC(=O)O)CC2)NC(=O)[C@@H](CO)NC(=O)[C@H](Cc2c[nH]cn2)NC(=O)[C@@H](Cc2c[nH]c3ccccc23)NC1=O` [copper-64 labelled], the tissue uptake was 0.37 ± 0.05 %ID/g (Balb/c mice, plasma; intravenous, dose not given).
The EC50 of `CN(C)Cc1nc(Nc2ccc(-c3cnc4cc(F)ccn34)c3c2C(=O)NC3)ccc1C1CCOC1` (stereo not drawn) is reported as 12 nM (human CD4 T cells; cytokine induction, item: IL-2; together with: anti-CD3/CD28).
`CC(C)c1ccc(N(C)c2ccc3c(c2)OCC[C@H]3CNc2cnccc2C(=O)O)cc1` has an IC50 of ≥ 10000 nM (NCI-H1573; cell growth or viability, ATP luminescence; 7 days).
`C=C1C[C@]2(C(=O)OC)C=C(C(=O)Nc3cccc(C(=O)Nc4ccc(Nc5nccc(-c6cccnc6)n5)c(C)c4)c3)C(=O)[C@H]1C2` gave a reporter activity of 1.11 (HEK293 AP1 reporter cells; AP-1 reporter gene, inhibitor; 1 µM, 6 h, unit not given, together with: PMA; relative to: PMA alone).
For `Cc1ccncc1.[Cl-].[Cl-].[Ru+2].c1cc(-c2ccc3cccnc3n2)nc(-c2ccc3cccnc3n2)c1.c1ccc2cc3nc4c5cccnc5c5ncccc5c4nc3cc2c1`, the EC50 was 605 ± 21 nM (SK-MEL-28; photocytotoxicity; light 633 nm, oxygen 18.5%).
`CC(=O)N(Cc1cccnc1)c1cccc(-c2nc3ccccc3s2)c1` has a relative translation of 102% (Trypanosoma cruzi; reporter mRNA translation, inhibitor, item: capped polyadenylated Renilla luciferase mRNA; cell-free extract; concentration not given; relative to: control RNA).
With `O=CCNCCOn1c(=O)n(OCCNCCO)c(=O)n(OCCNCCOn2c(=O)n(OCCNCCO)c(=O)n(OCCNCCO)c2=O)c1=O` the viability was 38.3% (A549; cell growth or viability, MTT; 100 µg/mL, 24 h).
The fold regulation of `CCN(CC)CC(=O)Nc1cccc(-n2cc(-c3ccc4ccc(-c5cn(-c6cccc(NC(=O)CN(CC)CC)c6)nn5)cc4c3)nn2)c1` is reported as 1.11 (RCC4; PCR angiogenesis array, item: JAG1; 5 x IC50, 6 h, normoxia; relative to: untreated).
`CCOc1cncc(-c2ccc(NC(=O)C3(c4ccnc(NS(=O)(=O)C5CC5)n4)CCOCC3)nc2)n1` has an IC50 of 10000 nM (lung cancer; cell viability, CellTiter-Glo; DMSO 0.1%; 72 h, line code 1072).
`COc1cc(N2CCN(C(=O)C3CCCN3)CC2)ccc1Nc1ncc(Cl)c(Nc2ccccc2P(C)(C)=O)n1` (stereo not drawn): “S phase cells” 6.86% and 8.85% and 7.55% (NCI-H3122; flow cytometry; 500 nM, 24 h).
For `CN1CCN(C(=O)c2ccc(-c3cc4c(N5CCC[C@H](C(=O)NCc6ccc(OC(F)(F)F)cc6)C5)ncnc4[nH]3)cc2)CC1`, the inhibition was 80% (KARPAS-299; cell growth or viability, MTT; 1 µg/mL, 72 h).
`C=C1C(=O)OC2C1CCC(C)(O)C13C=CC(C)(C21)C1(C3)C(=O)CC2(C(C)C)CC21` (stereo not drawn) gave a maximum inhibition of 22.6 ± 3.21% (AML12 mouse hepatocytes; lipid accumulation, Nile Red staining; maximum safe concentration, 24 h, together with: palmitic acid/oleic acid).
`CCN(C(=O)c1cc(F)ccc1Oc1nncnc1N1CCC2(C1)CN([C@H](CCCN(C)CCOC)C(C)C)C2)C(C)C` gave a GI50 of > 10000 nM (Panc1005; cell growth or viability; 7 days).
`CC(=O)n1cc([C@H]2C=C(C(=O)N3CCN(Cc4ccc5c(c4)OCO5)CC3)O[C@@H](OCc3ccc(CO)cc3)C2)c2ccccc21` has a relative translation of 54.3% (Trypanosoma cruzi; reporter mRNA translation, inhibitor, item: capped polyadenylated Renilla luciferase mRNA; cell-free extract; concentration not given; relative to: control RNA).
With `Cc1cnc(Nc2ccc(C3CCN(C)CC3)c(F)c2)nc1Nc1ccc(Cl)c(NS(=O)(=O)C(C)(C)C)c1` the protein reduction was ~61% (MM1.S; item: ULK3; 3 µM, 6 h; relative to: vehicle).
`C=CC(=O)N1[C@@H](c2ccc3c(c2)OCO3)c2[nH]c3ccccc3c2C[C@H]1C(=O)NC1CC1` gave a neuron degeneration of 86.5% and 90% (rat DRG neurons; 0.04115 µM, 48 h, together with: vincristine 40 nM).
`CN1CCCNC(=O)c2cccc(c2)C(=O)NCCCN(C)CCCNc2cccc3c2C(=O)c2cccc(c2C3=O)NCCC1` — result for “log2 fold change”: 0.756 (SAS; RNA-Seq, item: PEX6 mRNA; 1 µM, 6 h; relative to: untreated cells).
`CN(C)c1ccc(-n2cc(COC(=O)[C@]3(C)C=C(C(=O)OC(C)(C)C)C(=O)CC3)nn2)cc1` gave a pRSK/tubulin ratio of 0.155 (HeLa; quantitative western blot; concentration not given, 4 (unit not given), together with: EGF).
For `COC(=O)c1cc(NC2=NC(=O)C(=Cc3ccc(N(C)C)cc3)S2)ccc1OC(C)=O`, the metabolite level was -0.76 fold change (MCF7; GC-MS, item: Myristic acid; 1 µM; relative to: DMSO).
For `CCCCCCCC(=O)[O][Pt]([Cl])([Cl])[O]C(=O)CCCCCCC.N.N`, “IC50 fold reduction” read 4.5 fold (A549/DDP cisplatin-resistant; together with: survivin siRNA transfection; relative to: non-transfected over transfected).
With `N#Cc1cccc(/C=C/C(=O)c2ccc(O)cc2)c1` the fold change was 99.5 (U-87 MG; item: HSPH1; concentration not given; relative to: untreated).
`CCCCN1C(=O)c2cccc3c(NCCCCN4CCOCC4)ccc(c23)C1=O`: “Pearson's correlation coefficient” 0.86 ± 0.02 (BHK-21; confocal microscopy, item: lysosome colocalisation; 0.2 µM, together with: 0.3 µM LysoTracker Deep Red).
For `CNS(=O)(=O)Nc1nccc(Cc2c(C)c3ccc(Oc4ncccc4F)cc3oc2=O)c1F`, the IC50 was > 1000 nM (A704; cell viability; 7 days).
`Cc1cc(NC2CCN(C)CC2)ccc1-c1cc2c(N3CCC[C@H](C(=O)NCc4ccc(OC(F)(F)F)cc4)C3)ncnc2[nH]1` has an inhibition of 71.9% (KARPAS-299; cell growth or viability, MTT; 0.2 µg/mL, 72 h).
`Cc1cc(NC(=O)c2cccc(N)c2)ccc1Nc1nccc(-c2cccnc2)n1` has a reporter activity of 0.974 (HEK293 AP1 reporter cells; AP-1 reporter gene, inhibitor; 1 µM, 6 h, unit not given, together with: PMA; relative to: PMA alone).
With `COc1ccccc1-c1ccncc1C(=O)Nc1nnc(OCc2ccc(Cl)cc2)s1` the colony count was 81.5 and 79.5 and 66.5 (DLD-1 parental; 0.06 µM, mean of replicates).
Under “caspase 3/7 activity”, `COc1ccc(NC(=O)c2ccc3[nH]c(-c4ccc(N(C)C)cc4)nc3c2)cn1` is recorded as 2.48 (HCT-116; 8 µM, 16 h, unit not given; relative to: DMSO).
`Cc1ncsc1-c1ccc(C(C)NC(=O)C2CC(O)CN2C(=O)C(NC(=O)CCCCCCCCCCN2CCCC(Nc3ncc(Cl)c(Nc4ccccc4S(=O)(=O)C(C)C)n3)C2)C(C)(C)C)cc1` (stereo not drawn) — result for “log2 fold change”: -1.9 (22Rv1; RNA-seq, item: PLPP6 mRNA; concentration not given; relative to: DMSO).
`Cc1ccc(-n2cc(CSc3nc4ccccc4n3Cc3cn(-c4ccc(C)cc4)nn3)nn2)cc1` has a viability of 14.8% (MDA-MB-231; MTT; 31.3 ppm).
With `CCN(CC)CCNC(=S)Nc1ccc2nc(N3CCN(CC)CC3)cc(C)c2c1` the GFP-positive cells was 6.28% (U2OS SSA-GFP reporter; single-strand annealing, flow cytometry; 10 µM).
`C=C1C(=O)OC2C1CCC(C)(O)C13C=CC(C)(C21)C1(C3)C(=O)OC2C3C(C)C(=O)CC3C(=C)CC(OC(C)=O)C21` (stereo not drawn) gave a maximum inhibition of 85.3 ± 6.21% (AML12 mouse hepatocytes; lipid accumulation, Nile Red staining; maximum safe concentration, 24 h, together with: palmitic acid/oleic acid).
`COc1ccc(CSC2C3=C(CCCC3=O)Oc3ccc(Br)cc32)cc1` (stereo not drawn) has an IC20 of 22.2 µg/mL (≈ 51.5 µM) (3T3-L1; cell growth or viability, MTT; 72 h).
With `CC[C@H]1CN([C@@H](CC)c2ccc(C(F)(F)F)cc2)[C@H](CC)CN1c1nc(=O)n(C)c2ccc(C#N)nc12` the Hill slope was 0.308 (human CD4 T cells; phosphoproteomics, item: POLE4 S9; 60 min, C2_P1 precursor).
With `[BH3-][P+]1(c2ccccc2)CCCCC1` the live cells was 50% (PC-3; trypan blue; concentration not given, 72 h, compound at IC50; relative to: control).
`Cn1ncc2cc(-c3cncc(Cl)c3N3CCC4(CCNC4=O)CC3)ccc21` — result for “log2 fold change”: 2.12 (LS174T; gene expression, microarray, item: G0S2 mRNA; concentration not given, 24 h; relative to: untreated cells).
`O=C(N1CCCC1)n1cc(-c2ccc(-c3ccccc3)cc2)nn1` gave an SILAC ratio of 1.09 (mouse T cells; N-terminal labelling proteomics, item: OXSR1 N-terminal peptides; 0.001 µM, 6 h; relative to: DMSO).
For `O=Cc1cc(C(F)(F)F)ccc1B(O)O`, “pseudo-first-order rate constant” read 0 h⁻¹ (reaction with N-acetyl-lysine, HPLC-MS; pH 10.2, together with: N-α-acetyl-lysine).
`CO[C@@H]1[C@@H](OC(N)=O)[C@@H](O)[C@H](Oc2ccc3c(O)c(NC(=O)c4ccc(O)c(CC=C(C)C)c4)c(=O)oc3c2C)OC1(C)C` has a colony survival of 32.8% (HCT-116 BRCA2 wild-type; 300 µM, mean of replicates A, B; relative to: untreated).

Some of these lines once more:
With `O=CCNCCOn1c(=O)n(OCCNCCO)c(=O)n(OCCNCCOn2c(=O)n(OCCNCCO)c(=O)n(OCCNCCO)c2=O)c1=O` the viability was 38.3% (A549; cell growth or viability, MTT; 100 µg/mL, 24 h).
`CCN(C(=O)c1cc(F)ccc1Oc1nncnc1N1CCC2(C1)CN([C@H](CCCN(C)CCOC)C(C)C)C2)C(C)C` gave a GI50 of > 10000 nM (Panc1005; cell growth or viability; 7 days).
With `CC[C@H]1CN([C@@H](CC)c2ccc(C(F)(F)F)cc2)[C@H](CC)CN1c1nc(=O)n(C)c2ccc(C#N)nc12` the Hill slope was 0.308 (human CD4 T cells; phosphoproteomics, item: POLE4 S9; 60 min, C2_P1 precursor).
`CN1CCCNC(=O)c2cccc(c2)C(=O)NCCCN(C)CCCNc2cccc3c2C(=O)c2cccc(c2C3=O)NCCC1` — result for “log2 fold change”: 0.756 (SAS; RNA-Seq, item: PEX6 mRNA; 1 µM, 6 h; relative to: untreated cells).
`COc1ccc(CSC2C3=C(CCCC3=O)Oc3ccc(Br)cc32)cc1` (stereo not drawn) has an IC20 of 22.2 µg/mL (≈ 51.5 µM) (3T3-L1; cell growth or viability, MTT; 72 h).
`CO[C@@H]1[C@@H](OC(N)=O)[C@@H](O)[C@H](Oc2ccc3c(O)c(NC(=O)c4ccc(O)c(CC=C(C)C)c4)c(=O)oc3c2C)OC1(C)C` has a colony survival of 32.8% (HCT-116 BRCA2 wild-type; 300 µM, mean of replicates A, B; relative to: untreated).
